Assay results from different studies.
Parts stem from different laboratories: compare values within a part only.

Block 1 — method: RNA Bind-n-Seq; molecule type: RNA; medium: in vitro; tested at: 365 nM; baseline: no-protein control; reading: higher = stronger binding
Target: RNA binding protein fox-1 homolog 2, RRM domain, GST-SBP tag (RBFOX2, Homo sapiens, UniProt O43251-10, residues 100-194)
Notes: natural RNA segment, single round, ends assumed
Shared flanks, not repeated: GGGAGUUCUACAGUCCGACGAUC … UGGAAUUCUCGGGUGCCAA
Construct (chain): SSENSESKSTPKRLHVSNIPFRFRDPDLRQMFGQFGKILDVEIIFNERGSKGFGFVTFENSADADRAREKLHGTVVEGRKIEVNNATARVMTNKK
`UUUUGGCUCUGAAGAAGCAAACAUGACUAGAGACGCACCUUGCUGCAGUGUCCAGAAGCGGCCUGUGCGUUCCCUUCAGUACUGCAGCGCCACCCAGUGGAAGGACACUC` — result for “RBNS enrichment (R)”: 0.376.
`UCAGAGUGAAAAAGUAAAUUUUAUAGGAAAAAAGGGUAUCAUGAUGAAAUUCAAAAUCUUAUUUUCUAAGGUCAGUGUGCAUUUGUUUAGUUUUGAUGCUUUUCAAAUUA`: “RBNS enrichment (R)” 0.395.
For `UUCUUUGGGAUUGUGAAUAGAAUGUAGCAAAACCAGAUUCCAGUGUACUAGUCAUGGAUCUUUCUCUCCCUGGCAUGUGAAAGUCAGUCUUAGAGGAAGAGAUUCCACUU`, “RBNS enrichment (R)” read 0.762.
For `UUGUUACAGGCUGUGCAGUGCAACAAUUCCAGCAAAAAUACCCUAUCCCCGCACUUAGUCAUUCGUGGUAACUAACAAUUUUGAAAUACUCAUAUAAAAUGAACAGGAAA`, “RBNS enrichment (R)” read 0.673.
`AUGAUUUGUAACAUUCACACAACACCUCACUUUUGAAUCUAUAAAAGAAUUGCACGUAUGAGAAACCUAUAUUUCAAUACUGCUGAAACAGACAUGAAAUAAAGAAUUUA` — result for “RBNS enrichment (R)”: 8.44.
For `UUGAAAGGAGCUCCAGAGGAGUGGAGUUCUGUGUUGCUCACAUGUUAAAAUCUUGCUCACCUUCAGAGCAGAGGGAAUACCUAUCUUCAGAUAUCCGUCCAUUUUCAUCU`, “RBNS enrichment (R)” read 0.505.
`CUCACACUCACUCUCUGUUGAGCUUCUUCCCAGGGAAGGGGAUUCUGGGACAGGGGGCUGCCACUAAGCACACACACUCCUCCUAUUUUCCAGAAGUGAACAUUUCAUGU`: “RBNS enrichment (R)” 0.547.
For `GACUUAGGCAAUACACCAAGGGCGAGAUUUUAUAUGCACAUUUCUGGAUUUUUUUAUAUGCUUUUCAUUGAUACCCUUCCCUCCUCCCACCUGCUGCCAGGCCUCACCAA`, “RBNS enrichment (R)” read 0.729.
`AAUCAGUGAGGUUGAUUUUUCUUUUUUCCUACCGUUUCAUAGUCUUUGUCUAACUGCUAGUAACCCUACCGAGUUUUAUAUAUGAGUGGGAUACUCAAUCUGGCCUUAAA` — result for “RBNS enrichment (R)”: 0.808.
Under “RBNS enrichment (R)”, `UUUGGUUGGGGAGCCAGCUUGGGGUGGGGAGUUUCACCUGGGCCUCCGCUCUCUAACUACAUAAACAUUUAUCUGUAUCUCUCUGUCCCGGGCUGGGGGCAGGAGGAAUC` is recorded as 0.653.
`GCCUCCUUGACGUGGACAAUCACUAGACUCAGUGCUCUGAGAAAAUCUGCUAUUUCUGUUGAAUGGGUCAGUCUUAAAGCUUUAAAAUUCACAUAGGUGGAGUUUCCCAU`: “RBNS enrichment (R)” 0.34.
For `UGUAUGGCUACCGGAAACAGGUGGGUCACCUCCUGCAAGAAGUGGGGCCUCGAGCUGUCAGUCAUCAUGGUGCUAUCCUCUGAACCCCUCAGCUGCCACUGCAACAGUGG`, “RBNS enrichment (R)” read 0.188.

Block 2 — method: protein-binding microarray; molecule type: double-stranded DNA, one strand shown; medium: in vitro; tested at: 250 nM; notes: 60-bp whole probe; together with: salmon DNA 0.4 mg/ml; baseline: random background probes; reading: higher = stronger binding; shared flanks, not repeated: GCCTAGCAC … GTCTTGATTCGCTTGACGCTGCTG
Target: Interferon regulatory factor 5, full length, phosphomimetic (IRF5, Homo sapiens, UniProt Q13568-2, residues 1-514, K96S/S451D/S453D/S456D/S462D)
`CTCCTGCAGCTGCCCTCCTGGTGCTAG` has a log fluorescence of -0.598 z-score.
The log fluorescence of `CTCTGTTTATGTCTGGGTATGTGCTAG` is reported as 0.349 z-score.
The log fluorescence of `TTAGGACAGCTTATCCTTTAGTGCTAG` is reported as -0.389 z-score.
`AAGAATCAGGGGTTTTATCCGTGCTAG` gave a log fluorescence of -0.366 z-score.
The log fluorescence of `TTAGATCGCAGTATCGATTAGTGCTAG` is reported as 5.74 z-score.
For `TTACGTCTCCTTTTCCTTTAGTGCTAG`, the log fluorescence was 1.15 z-score.
`TCAACTTTGGTTTGTACACTGTGCTAG` has a log fluorescence of 0.334 z-score.
With `GACGGTTTCGGGTTTCGGGGCGTGCTA` the log fluorescence was 7.52 z-score.
The log fluorescence of `GACGGACTGGGTAGCGGGACGTGCTAG` is reported as -0.779 z-score.
For `TTAGATAGCGGGTATCGATTAGTGCTA`, the log fluorescence was 3.33 z-score.
`TTGGATTTCAGTATCGATTAGTGCTAG` has a log fluorescence of 8.26 z-score.
The log fluorescence of `ATGAGTCTCAAAATTAGAGAGTGCTAG` is reported as 0.0504 z-score.
For `TCATACCTGTATATCTTACTGTGCTAG`, the log fluorescence was 0.422 z-score.
For `TTAGGATTGGGTCTCGGTTAGTGCTAG`, the log fluorescence was 0.24 z-score.
`GACGAACTGAGTCTCTAGACGTGCTAG` has a log fluorescence of -0.437 z-score.
With `TCATCTAACCTCTCTAATACTGTGCTA` the log fluorescence was 0.191 z-score.
`TAGTTTTACTTTCTATCTCTGTGCTAG` gave a log fluorescence of 5.82 z-score.
The log fluorescence of `GACGATATCAGTCTCGAGGCGTGCTAG` is reported as 1.19 z-score.
With `TTAGGTTCCAGTTTCGGTTAGTGCTAG` the log fluorescence was 10.5 z-score.
`TCAAATATCTTTGTTGAACTGTGCTAG` has a log fluorescence of 0.603 z-score.
`TTAGGACTCGGTTTCGGTTAGTGCTAG` has a log fluorescence of 8.59 z-score.
`GACGGTCTCGGACTGGCGACGTGCTAG` gave a log fluorescence of -0.452 z-score.
With `GACGATTTCAGAATCGAGACGTGCTAG` the log fluorescence was 0.601 z-score.
For `GACGATATCTGTCTCGAGACGTGCTAG`, the log fluorescence was 0.969 z-score.
With `TAGAACTTCTCCACTGAATGAGTGCTA` the log fluorescence was 0.162 z-score.

Block 3 — method: EMSA with sequencing; molecule type: double-stranded DNA, one strand shown; medium: in vitro; tested at: 10 and 20 nM; baseline: negative control set to 0; reading: higher = stronger binding
Target: Hepatocyte nuclear factor 3-alpha (Foxa1, Mus musculus, UniProt P35582, residues 1-468, full length assumed)
Notes: whole designed probe, mean of two concentrations, ends assumed
Shared flanks, not repeated: GTGAGCGGTGCCCATTGATGGGGAAC … TTTCACTGGGATCGTGGGGAC
Construct (chain): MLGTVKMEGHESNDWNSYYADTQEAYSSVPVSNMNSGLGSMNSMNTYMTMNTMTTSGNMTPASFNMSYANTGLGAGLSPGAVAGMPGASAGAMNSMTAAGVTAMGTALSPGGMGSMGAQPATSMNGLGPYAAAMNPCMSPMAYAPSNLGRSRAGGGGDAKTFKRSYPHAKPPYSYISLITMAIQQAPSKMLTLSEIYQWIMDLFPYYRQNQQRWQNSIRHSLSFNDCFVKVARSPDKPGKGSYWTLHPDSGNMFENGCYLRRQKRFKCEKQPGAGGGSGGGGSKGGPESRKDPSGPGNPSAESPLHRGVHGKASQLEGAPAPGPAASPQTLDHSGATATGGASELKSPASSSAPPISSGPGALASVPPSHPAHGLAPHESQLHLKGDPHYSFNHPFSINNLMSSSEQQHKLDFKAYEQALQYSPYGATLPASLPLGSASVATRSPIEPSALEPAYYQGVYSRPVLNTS
For `GTGTGTGCGCGCGCGTGTGTGTGTGTTTTCTTAAGCCGGGCTATTCAAACCCTGCTGCAATTCTCCGGTACAATGATTCATAAGGGGCACGTTTATTTGCATTAGATTGCAAACGGCGCGGTTCGCGCACTTTGCAGCCGGCCCGGTGGAGCAGCCAGTGCCGGATTTCTCCCTTTTTTTGCAGATCTGCAGA`, “normalised bound fraction” read 0.434 ratio.
`GGCTCCAAACGGCTGAATCAGCATTTTCAGAAACAAAGTGTTCTAGGCCTGGCCTTTTAAACAGTTGTGCAATGCAGCAACGAGCAAAACGCATATTTACTCACGAGCTCTCCTTGTTTTGGTCTTTCCCCCCTCCCCCCCATCTCTTGAATGAAACTGGGCACCAAGTTTGCAAGAAAATATTCTTTCAAAC`: “normalised bound fraction” 0.106 ratio.
`ATCAAAGGATGACAAGTAACAGTAAATATGTAGTATTGATCCCAAATAGAAATATAGATGGATTTTTATCTTATGATGACATTTTAGTCTGAGTAAACAACAAAAAGTCACTGGGATGGGTGGCAGTGGTAAGAAGATGGCAGATGTCTATCTATTGATTGTATTCATATTCATATTTATATTCATTTATATG` — result for “normalised bound fraction”: 0.428 ratio.
`ATCTAGTTCCAGTCTTAGCATGGCAATTTCTTCCCGCAACATGCTGTTTTCACGCAAGAGATCTTCTTCTTTCTTATGACTAAGAGAAAGCTAAGTAATCTAAGGGAACTTTTAGTTAGCACTCAATAGAATGACATATCATGATTTCTTCTAAAATCAAAGAATGACATTTATATTTGTATAATGAAATAAT` — result for “normalised bound fraction”: 0.225 ratio.
For `CTTACATGCAATTGCTTAATATAATATAGCTTTCCTCTCAATTTTACAAAATTAAGATCTTACTTGGCTAATTCTAAGACACCTAGGAACAGTGTAAATATGGCTCAGAATTGCCAGTGCCCAGACTGGAATTTCACTGAATGAATATAATCATTTTCTCCTTAAAGTAACCTAAAATAAACCCCTCCAAAAA`, “normalised bound fraction” read 0.105 ratio.
Under “normalised bound fraction”, `TTTCCAGCCCTTAGTTTCTGGCATTTAACCTGACTCTGGTCCCTGAATGGCATGGGAGTGCTTTCAACCACAGGTTTCCACATTCATGCAAAAGCAAACAAGTGTGATCTACAGAGCTGACTCATTCATCTTTATTTGCTTTGTGTTTCCAATGGAGAAAGAGCTTGGGAAGGGAGGATCCTAATTGTCTAAA` is recorded as 0.441 ratio.
`TCCTTTATCCCAACATGTTTATACAGACAAAACCAGGTTAAAATCGACACAAGGTCAACTTGAAATGGGGAAAGAGGAAGGTGACGTCACAAAATAAACATGAAGTCTTGTGTACAAGCATCTGCAGAAGAGTTCAGCCTCACCACTTGGGTAATGCTGTTGGAATGTGGTCTGGGTTCACTGTATTTGAATG` — result for “normalised bound fraction”: 0.348 ratio.
`TTTTCTTCTGGAAATTTACTATATGTAAAAAAGAAGGCAGGAAGGGAATTAAAGGAAAAAGTCCATTCTTCTGATGGCCTTTAAGTATCAAAGTAAACAGAAAATAACCTATTCCAACTACTGTTCCCATTGCTAAAATTGTCTTTTATAAATTTAAGAAAAAATATTAGTAGCAAACATATGATGCAAAGGA`: “normalised bound fraction” 0.349 ratio.

Block 4 — method: RNAcompete; molecule type: RNA; medium: in vitro; tested at: 20 nM; notes: 7-mer, probes averaged, single round; baseline: mean of 7-mers; reading: higher = stronger binding
Target: PABPC1L2, full length, GST fusion (mouse, UniProt A0ABA7IW68)
Target sequence (chain): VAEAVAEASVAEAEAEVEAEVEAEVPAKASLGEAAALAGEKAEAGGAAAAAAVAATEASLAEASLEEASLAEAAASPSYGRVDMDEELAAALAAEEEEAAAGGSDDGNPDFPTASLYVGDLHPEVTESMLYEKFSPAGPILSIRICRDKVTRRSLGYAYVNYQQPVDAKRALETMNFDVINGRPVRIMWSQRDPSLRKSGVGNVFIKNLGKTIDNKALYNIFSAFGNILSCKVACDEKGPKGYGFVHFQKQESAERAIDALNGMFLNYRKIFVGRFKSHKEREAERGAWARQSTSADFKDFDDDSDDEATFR
The 7-mer Z-score of `AUGCGGU` is reported as 0.000733.
The 7-mer Z-score of `UAUAAGA` is reported as 0.0932.
With `UUAUGCG` the 7-mer Z-score was -0.2.
`CGCAGUU` has a 7-mer Z-score of -0.264.
`AAUGUGC` has a 7-mer Z-score of -0.0482.
`UGCGGUC` has a 7-mer Z-score of -0.0718.
With `CCGGAGG` the 7-mer Z-score was -0.0464.
With `AACCCGC` the 7-mer Z-score was -0.296.
`UGCCCAG` gave a 7-mer Z-score of -0.284.
For `ACCACGC`, the 7-mer Z-score was -0.0663.
`CUCCAAA` gave a 7-mer Z-score of 0.3.
For `AUGCGCA`, the 7-mer Z-score was -0.00652.
The 7-mer Z-score of `GGUGCUC` is reported as -0.0482.
For `GUUCUAU`, the 7-mer Z-score was -0.329.
The 7-mer Z-score of `UUAAUUA` is reported as -0.0156.
For `CCUCUGU`, the 7-mer Z-score was -0.396.
The 7-mer Z-score of `AUCUCAU` is reported as -0.215.
For `CGUAAAC`, the 7-mer Z-score was 0.0515.
The 7-mer Z-score of `UCCCACA` is reported as -0.358.

For quick reference, copied from above (block 2):
`TTGGATTTCAGTATCGATTAGTGCTAG` has a log fluorescence of 8.26 z-score.
The log fluorescence of `ATGAGTCTCAAAATTAGAGAGTGCTAG` is reported as 0.0504 z-score.
For `TCATACCTGTATATCTTACTGTGCTAG`, the log fluorescence was 0.422 z-score.
For `TTAGGATTGGGTCTCGGTTAGTGCTAG`, the log fluorescence was 0.24 z-score.
`GACGAACTGAGTCTCTAGACGTGCTAG` has a log fluorescence of -0.437 z-score.
